Published values gathered from unrelated publications.
Each line is one published result; not all experiments were run side by side.

Nc1ncn([C@@H]2O[C@H](CO)[C@@H](O)[C@H]2O)c(=O)n1  AUC(0-tau) (human; intravenous, 100 mg/m^2, cycle 1 day 1, given alone): 1200 ng·h/mL
Cc1cc(C)c(CNC(=O)c2cc(Cl)c3c(c2C)O[C@@](C)([C@H]2CC[C@H](N(C)C)CC2)O3)c(=O)[nH]1  AUC(0-tau) (human, NHL patients, plasma; oral, 200 mg/day, cycle 1 day 1, once daily): 14100 ng·h/mL
CC(C)C[C@H](NC(=O)[C@H](CC(C)C)NC(=O)[C@H](Cc1c[nH]c2ccccc12)NC(=O)[C@H](CCC(=O)O)NC(=O)[C@@H](NC(=O)[C@H](Cc1ccccc1)NC(=O)[C@H](CCC(=O)O)NC(=O)[C@H](CCCCNC(=O)COCCOCCNC(=O)COCCOCCNC(=O)CC[C@H](NC(=O)CCCCCCCCCCCCCCCCCCC(=O)O)C(=O)O)NC(=O)[C@H](C)NC(=O)[C@H](CCCCN)NC(=O)[C@H](CCCCN)NC(=O)[C@H](CCC(=O)O)NC(=O)[C@H](CC(=O)O)NC(=O)[C@H](CC(C)C)NC(=O)[C@H](Cc1ccc(O)cc1)NC(=O)[C@H](CCCCN)NC(=O)[C@H](CO)NC(=O)[C@H](Cc1ccc(O)cc1)NC(=O)[C@H](CC(=O)O)NC(=O)[C@H](CO)NC(=O)[C@@H](NC(=O)[C@H](Cc1ccccc1)NC(=O)[C@@H](NC(=O)CNC(=O)[C@H](CCC(N)=O)NC(=O)C(C)(C)NC(=O)[C@@H](N)Cc1c[nH]cn1)[C@@H](C)O)[C@@H](C)O)C(C)C)C(=O)N[C@@H](CCC(=O)O)C(=O)NCC(=O)NCC(=O)N1CCC[C@H]1C(=O)N[C@@H](CO)C(=O)N[C@@H](CO)C(=O)NCC(N)=O  AUC(0-tau) (human, plasma; subcutaneous, 16 mg weekly, week 20, cohorts 1 and 2): 689000 ng·h/mL
COC[C@@H](c1ccc(C(F)(F)F)cc1)N1CCN(C2(C)CCN(C(=O)c3c(C)ncnc3C)CC2)C[C@@H]1C  AUC(0-tau) (human; oral, 15 mg once daily, steady state, population PK, added: ritonavir): 3390 ng·h/mL
CCOc1c([C@H](C)n2nc(C)c3c(N)ncnc32)cc(Cl)c(F)c1[C@@H]1CNC(=O)C1  AUC(0-tau) (human, DLBCL, plasma; oral, 20 mg, day 15, geometric mean): 13.5 µM·h
CN1CC[C@@H](NC(=O)Nc2ccc(C#N)cc2)C[C@@H]1c1nc2ccccc2[nH]1  AUC(0-tau) (human; oral, 100 mg once daily, induction cycle day 10, given alone): 18100 ng·h/mL
CCN1CCN(Cc2ccc(Nc3ncc(F)c(-c4cc(F)c5nc6n(c5c4)[C@H](C)CCC6)n3)nc2)CC1  AUC(0-tau) (human, plasma; 200 mg multiple dosing, mean): 5630 ng·h/mL
Cc1cc(/C=C/C#N)cc(C)c1Nc1ccnc(Nc2ccc(C#N)cc2)n1  AUC(0-tau) (human, normal renal function, plasma; oral, dose not given, steady state): 2300 ng·h/mL
CCCCOCCOc1ccc(-c2ccc3c(c2)/C=C(/C(=O)Nc2ccc([S@@+]([O-])Cc4cncn4CCC)cc2)CCCN3CC(C)C)cc1  AUC(0-tau) (human, mild impairment matched controls, plasma; oral, 150 mg, day 1, geometric mean): 5670 ng·h/mL
O=C(O)CCC(=O)O.[2H]C([2H])([2H])Oc1cc(C)c2[nH]ccc2c1CN1CC[C@@H](C2CC2)C[C@H]1c1ccc(C(=O)O)cc1  AUC(0-tau) (human, plasma; 100 mg twice daily, day 1, multiple ascending dose, geometric mean): 15700 ng·h/mL
Cc1ncnc2c1ccn2[C@@H]1C[C@H](Oc2cc(C(F)F)c(F)c3c2CNCC3)[C@@H](O)[C@H]1O  AUC(0-tau) (human; oral, 6 mg twice daily): 281 ng·h/mL
Cc1noc(C)c1-c1cc(C(O)(c2ccccn2)c2ccccn2)c2nc(C3CC3)[nH]c2c1  AUC(0-tau) (human patients, fasted, plasma; oral, 6 mg once daily, cycle 1 day 15, added: enzalutamide once daily): 701 ng·h/mL
N#CCNC(=O)c1ccc(-c2ccnc(Nc3ccc(N4CCOCC4)cc3)n2)cc1  AUC(0-tau) (healthy human volunteers, plasma; oral, 100 mg once daily, day 7, fed, given alone): 1660 ng·h/mL
CC(=O)N1CCC(Nc2cc(C(=O)NC[C@H](O)CN3CCc4ccccc4C3)ncn2)CC1  AUC(0-tau) (human, plasma; oral, 300 mg, week 3 day 1, geometric mean): 5830 ng·h/mL
CC(C)NC(=O)COc1cccc(-c2nc(Nc3ccc4[nH]ncc4c3)c3ccccc3n2)c1  AUC(0-tau) (human male, plasma; oral, 200 mg once daily, day 13, fed, geometric mean, added: rosuvastatin): 12900 ng·h/mL
Nc1c2c(cc3c1CCC3)CCC2  AUC(0-tau) (human, plasma; oral, 300 mg twice daily of GDC-2394, day 7, multiple ascending dose): 200 ng·h/mL
Cl.[2H]C([2H])([2H])CC(=O)c1cnc(NC(=O)C2CC2)cc1Nc1cccc(-c2ncn(C([2H])([2H])[2H])n2)c1OC  AUC(0-tau) (human, fed, multiple dose; oral, 30 mg twice daily, tablet, day 1, geometric mean): 1210 ng·h/mL

Some of these lines once more:
Nc1ncn([C@@H]2O[C@H](CO)[C@@H](O)[C@H]2O)c(=O)n1  AUC(0-tau) (human; intravenous, 100 mg/m^2, cycle 1 day 1, given alone): 1200 ng·h/mL
Cc1cc(C)c(CNC(=O)c2cc(Cl)c3c(c2C)O[C@@](C)([C@H]2CC[C@H](N(C)C)CC2)O3)c(=O)[nH]1  AUC(0-tau) (human, NHL patients, plasma; oral, 200 mg/day, cycle 1 day 1, once daily): 14100 ng·h/mL
CC(C)C[C@H](NC(=O)[C@H](CC(C)C)NC(=O)[C@H](Cc1c[nH]c2ccccc12)NC(=O)[C@H](CCC(=O)O)NC(=O)[C@@H](NC(=O)[C@H](Cc1ccccc1)NC(=O)[C@H](CCC(=O)O)NC(=O)[C@H](CCCCNC(=O)COCCOCCNC(=O)COCCOCCNC(=O)CC[C@H](NC(=O)CCCCCCCCCCCCCCCCCCC(=O)O)C(=O)O)NC(=O)[C@H](C)NC(=O)[C@H](CCCCN)NC(=O)[C@H](CCCCN)NC(=O)[C@H](CCC(=O)O)NC(=O)[C@H](CC(=O)O)NC(=O)[C@H](CC(C)C)NC(=O)[C@H](Cc1ccc(O)cc1)NC(=O)[C@H](CCCCN)NC(=O)[C@H](CO)NC(=O)[C@H](Cc1ccc(O)cc1)NC(=O)[C@H](CC(=O)O)NC(=O)[C@H](CO)NC(=O)[C@@H](NC(=O)[C@H](Cc1ccccc1)NC(=O)[C@@H](NC(=O)CNC(=O)[C@H](CCC(N)=O)NC(=O)C(C)(C)NC(=O)[C@@H](N)Cc1c[nH]cn1)[C@@H](C)O)[C@@H](C)O)C(C)C)C(=O)N[C@@H](CCC(=O)O)C(=O)NCC(=O)NCC(=O)N1CCC[C@H]1C(=O)N[C@@H](CO)C(=O)N[C@@H](CO)C(=O)NCC(N)=O  AUC(0-tau) (human, plasma; subcutaneous, 16 mg weekly, week 20, cohorts 1 and 2): 689000 ng·h/mL
